Assay results collected from several papers.
Numbered parts are unrelated; each lists some results of a single study.
Chain of UniProt Q96SB4 (whole entry, looked up): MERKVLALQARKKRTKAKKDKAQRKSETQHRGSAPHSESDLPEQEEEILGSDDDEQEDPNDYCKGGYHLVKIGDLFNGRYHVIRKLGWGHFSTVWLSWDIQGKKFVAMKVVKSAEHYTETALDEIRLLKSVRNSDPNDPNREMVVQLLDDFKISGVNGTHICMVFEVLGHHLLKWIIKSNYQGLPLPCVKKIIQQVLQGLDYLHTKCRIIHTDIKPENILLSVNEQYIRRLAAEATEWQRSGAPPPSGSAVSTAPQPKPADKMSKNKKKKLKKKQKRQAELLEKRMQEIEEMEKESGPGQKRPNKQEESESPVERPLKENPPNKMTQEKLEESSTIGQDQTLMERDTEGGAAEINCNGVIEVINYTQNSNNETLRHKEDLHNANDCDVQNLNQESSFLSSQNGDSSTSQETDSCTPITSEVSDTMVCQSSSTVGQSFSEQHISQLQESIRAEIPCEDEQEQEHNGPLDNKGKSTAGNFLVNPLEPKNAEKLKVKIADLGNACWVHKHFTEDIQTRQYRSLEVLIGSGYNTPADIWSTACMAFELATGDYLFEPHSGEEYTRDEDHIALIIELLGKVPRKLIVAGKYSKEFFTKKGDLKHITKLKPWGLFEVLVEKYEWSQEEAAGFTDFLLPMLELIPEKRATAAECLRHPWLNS
Chain of UniProt P29317 (whole entry, looked up): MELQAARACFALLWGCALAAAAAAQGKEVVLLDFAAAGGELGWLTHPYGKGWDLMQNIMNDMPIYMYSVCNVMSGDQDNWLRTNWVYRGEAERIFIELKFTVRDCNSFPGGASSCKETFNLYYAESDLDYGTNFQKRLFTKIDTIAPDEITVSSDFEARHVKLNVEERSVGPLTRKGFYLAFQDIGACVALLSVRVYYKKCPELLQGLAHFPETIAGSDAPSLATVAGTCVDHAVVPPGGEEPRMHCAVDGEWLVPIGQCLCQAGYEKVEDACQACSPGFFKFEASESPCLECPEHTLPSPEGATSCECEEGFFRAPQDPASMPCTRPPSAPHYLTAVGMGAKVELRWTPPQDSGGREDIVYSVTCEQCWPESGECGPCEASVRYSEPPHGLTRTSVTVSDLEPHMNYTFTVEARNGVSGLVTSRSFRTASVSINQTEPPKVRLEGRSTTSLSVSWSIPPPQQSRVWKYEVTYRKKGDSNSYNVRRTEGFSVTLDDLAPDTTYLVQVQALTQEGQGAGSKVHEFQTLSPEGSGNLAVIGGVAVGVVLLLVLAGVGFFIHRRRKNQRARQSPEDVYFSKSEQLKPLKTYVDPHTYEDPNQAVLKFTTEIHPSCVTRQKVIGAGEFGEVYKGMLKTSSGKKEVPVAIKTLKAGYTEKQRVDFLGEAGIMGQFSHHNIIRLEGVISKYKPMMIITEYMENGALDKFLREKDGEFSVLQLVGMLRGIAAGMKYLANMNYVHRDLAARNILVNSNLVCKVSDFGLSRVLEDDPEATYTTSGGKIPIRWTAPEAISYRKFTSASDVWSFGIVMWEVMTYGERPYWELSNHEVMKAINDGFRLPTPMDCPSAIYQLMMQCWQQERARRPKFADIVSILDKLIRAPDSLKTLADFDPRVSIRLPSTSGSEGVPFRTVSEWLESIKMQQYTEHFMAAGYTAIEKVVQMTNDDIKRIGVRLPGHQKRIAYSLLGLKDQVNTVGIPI
Chain of UniProt Q04759 (whole entry, looked up): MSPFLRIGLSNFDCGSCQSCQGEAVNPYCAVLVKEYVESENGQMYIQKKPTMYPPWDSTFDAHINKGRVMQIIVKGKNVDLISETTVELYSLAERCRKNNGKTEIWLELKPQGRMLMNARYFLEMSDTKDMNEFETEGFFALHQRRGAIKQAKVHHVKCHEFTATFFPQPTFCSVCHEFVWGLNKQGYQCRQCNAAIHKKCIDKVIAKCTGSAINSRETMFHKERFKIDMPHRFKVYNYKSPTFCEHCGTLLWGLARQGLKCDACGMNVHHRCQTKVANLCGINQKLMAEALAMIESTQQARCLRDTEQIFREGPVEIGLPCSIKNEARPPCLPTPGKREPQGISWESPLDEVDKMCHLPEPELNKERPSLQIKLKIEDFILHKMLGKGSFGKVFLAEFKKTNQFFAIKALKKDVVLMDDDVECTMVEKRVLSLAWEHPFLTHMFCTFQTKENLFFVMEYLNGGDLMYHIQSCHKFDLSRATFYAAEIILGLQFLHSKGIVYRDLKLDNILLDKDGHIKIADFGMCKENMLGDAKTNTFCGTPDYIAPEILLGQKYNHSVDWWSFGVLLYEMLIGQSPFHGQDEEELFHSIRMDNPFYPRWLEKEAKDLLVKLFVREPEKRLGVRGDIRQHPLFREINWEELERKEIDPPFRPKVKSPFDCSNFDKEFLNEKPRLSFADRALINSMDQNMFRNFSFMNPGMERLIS
Chain of UniProt O95747 (whole entry, looked up): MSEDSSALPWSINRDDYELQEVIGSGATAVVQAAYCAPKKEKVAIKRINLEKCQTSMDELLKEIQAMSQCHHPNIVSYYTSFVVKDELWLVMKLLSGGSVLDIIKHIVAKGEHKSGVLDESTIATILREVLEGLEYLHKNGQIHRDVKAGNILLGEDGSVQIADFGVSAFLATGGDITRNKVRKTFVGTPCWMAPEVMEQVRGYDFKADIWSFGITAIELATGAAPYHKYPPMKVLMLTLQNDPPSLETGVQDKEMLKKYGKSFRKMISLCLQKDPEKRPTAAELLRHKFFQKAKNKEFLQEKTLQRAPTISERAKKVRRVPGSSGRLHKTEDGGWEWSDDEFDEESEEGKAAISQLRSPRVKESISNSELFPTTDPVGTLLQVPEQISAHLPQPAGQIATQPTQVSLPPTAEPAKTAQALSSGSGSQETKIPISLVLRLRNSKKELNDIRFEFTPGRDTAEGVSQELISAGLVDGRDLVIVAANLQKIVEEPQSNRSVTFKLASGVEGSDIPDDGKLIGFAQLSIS
Chain of UniProt Q32MK0 (whole entry, looked up): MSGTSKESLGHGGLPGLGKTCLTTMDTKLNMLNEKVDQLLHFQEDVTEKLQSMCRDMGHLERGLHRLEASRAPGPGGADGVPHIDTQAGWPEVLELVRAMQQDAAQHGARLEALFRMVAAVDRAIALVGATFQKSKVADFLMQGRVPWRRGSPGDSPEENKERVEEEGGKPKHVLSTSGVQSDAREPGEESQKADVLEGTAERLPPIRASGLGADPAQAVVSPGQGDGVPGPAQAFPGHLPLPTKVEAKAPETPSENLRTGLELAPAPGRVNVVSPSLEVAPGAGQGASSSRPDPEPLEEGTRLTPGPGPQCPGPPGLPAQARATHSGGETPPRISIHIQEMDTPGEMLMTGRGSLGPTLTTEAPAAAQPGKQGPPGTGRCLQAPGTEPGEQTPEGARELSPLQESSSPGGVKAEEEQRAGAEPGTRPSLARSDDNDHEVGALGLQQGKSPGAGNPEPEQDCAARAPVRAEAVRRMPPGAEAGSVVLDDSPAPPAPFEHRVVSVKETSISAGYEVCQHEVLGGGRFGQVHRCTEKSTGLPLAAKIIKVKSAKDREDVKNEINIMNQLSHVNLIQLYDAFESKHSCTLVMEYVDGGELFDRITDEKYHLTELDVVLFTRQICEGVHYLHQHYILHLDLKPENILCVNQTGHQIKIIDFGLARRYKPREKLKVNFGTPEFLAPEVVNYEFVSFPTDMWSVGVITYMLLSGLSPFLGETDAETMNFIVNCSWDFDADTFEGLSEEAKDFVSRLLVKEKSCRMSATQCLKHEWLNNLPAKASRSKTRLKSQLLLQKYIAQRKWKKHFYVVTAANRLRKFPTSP
Chain of UniProt Q9NWZ3 (whole entry, looked up): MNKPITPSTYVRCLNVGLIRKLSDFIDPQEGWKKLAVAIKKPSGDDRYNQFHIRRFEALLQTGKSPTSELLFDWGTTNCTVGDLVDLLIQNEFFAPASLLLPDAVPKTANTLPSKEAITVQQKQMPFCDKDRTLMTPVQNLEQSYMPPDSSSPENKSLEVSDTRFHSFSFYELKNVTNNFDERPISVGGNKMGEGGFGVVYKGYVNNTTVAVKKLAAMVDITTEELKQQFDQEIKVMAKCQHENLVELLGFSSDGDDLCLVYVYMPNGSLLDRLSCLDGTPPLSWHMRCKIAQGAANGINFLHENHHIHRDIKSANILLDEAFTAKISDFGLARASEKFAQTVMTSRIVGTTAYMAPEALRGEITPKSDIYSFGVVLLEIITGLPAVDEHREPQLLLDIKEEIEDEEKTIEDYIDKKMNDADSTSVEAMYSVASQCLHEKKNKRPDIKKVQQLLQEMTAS
Chain of UniProt P32241 (whole entry, looked up): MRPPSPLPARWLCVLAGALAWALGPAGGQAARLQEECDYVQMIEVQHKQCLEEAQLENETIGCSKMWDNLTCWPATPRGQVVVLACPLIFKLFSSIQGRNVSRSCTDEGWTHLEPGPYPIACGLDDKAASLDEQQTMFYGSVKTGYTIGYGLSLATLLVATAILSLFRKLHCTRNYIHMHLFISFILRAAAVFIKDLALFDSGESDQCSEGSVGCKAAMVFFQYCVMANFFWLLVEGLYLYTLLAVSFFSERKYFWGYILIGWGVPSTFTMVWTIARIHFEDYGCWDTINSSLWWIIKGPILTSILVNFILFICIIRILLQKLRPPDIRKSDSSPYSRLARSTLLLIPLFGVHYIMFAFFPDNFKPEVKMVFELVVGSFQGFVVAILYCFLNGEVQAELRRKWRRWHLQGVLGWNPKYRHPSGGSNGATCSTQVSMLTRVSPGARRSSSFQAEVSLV
Chain of UniProt P30550 (whole entry, looked up): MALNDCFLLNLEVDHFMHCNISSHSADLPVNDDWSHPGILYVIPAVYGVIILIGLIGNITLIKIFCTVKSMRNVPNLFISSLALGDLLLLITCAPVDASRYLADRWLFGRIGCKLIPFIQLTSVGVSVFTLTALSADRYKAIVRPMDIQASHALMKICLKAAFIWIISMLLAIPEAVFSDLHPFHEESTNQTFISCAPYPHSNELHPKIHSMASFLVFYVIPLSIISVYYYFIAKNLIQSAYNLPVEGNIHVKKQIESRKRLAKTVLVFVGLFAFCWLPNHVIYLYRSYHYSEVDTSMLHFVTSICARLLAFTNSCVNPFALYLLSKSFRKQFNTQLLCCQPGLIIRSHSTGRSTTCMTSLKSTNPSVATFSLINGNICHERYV

Block 1
Compound: Cc1c(C(=O)O)cc(-c2ccc(C3CCNCC3)cc2)c2ccc(-c3ccc(C(F)(F)F)cc3)cc12
Method: competition with immobilised ligand
Concentration: 1 µM
target | read-out | remaining binding [%]
EPHA2 (Homo sapiens, UniProt P29317) | cell-free assay | 100
GRK1 (Homo sapiens, UniProt Q15835) | binding | 100
Mast/stem cell growth factor receptor Kit, autoinhibited (KIT, Homo sapiens, UniProt P10721) | binding | 84
GSK3A (Homo sapiens, UniProt P49840) | cell-free assay | 100
FYN (Homo sapiens, UniProt P06241) | binding | 100
IRAK4 (Homo sapiens, UniProt Q9NWZ3) | binding | 100
Aurora kinase C (AURKC, Homo sapiens, UniProt Q9UQB9) | binding | 92
LATS1 (Homo sapiens, UniProt O95835) | binding | 86
DCLK3 (Homo sapiens, UniProt Q9C098) | binding | 100
MYLK3 (Homo sapiens, UniProt Q32MK0) | binding | 94
MAK (Homo sapiens, UniProt P20794) | binding | 91
IRAK3 (Homo sapiens, UniProt Q9Y616) | binding | 100
RIPK4 (Homo sapiens, UniProt P57078) | binding | 97
BRAF (Homo sapiens, UniProt P15056, V600E) | cell-free assay | 100
TEK (Homo sapiens, UniProt Q02763) | cell-free assay | 100
CDKL3 (Homo sapiens, UniProt Q8IVW4) | binding | 100
EGFR (Homo sapiens, UniProt P00533, G719C) | cell-free assay | 100
SRPK1 (Homo sapiens, UniProt Q96SB4) | binding | 100
TBK1 (Homo sapiens, UniProt Q9UHD2) | binding | 73
EPHB6 (Homo sapiens, UniProt O15197) | cell-free assay | 100
CSNK1G1 (Homo sapiens, UniProt Q9HCP0) | cell-free assay | 100
HUNK (Homo sapiens, UniProt P57058) | binding | 100
PAK5 (Homo sapiens, UniProt Q9P286) | cell-free assay | 98
CDK11B (Homo sapiens, UniProt P21127) | cell-free assay | 100
OXSR1 (Homo sapiens, UniProt O95747) | binding | 100

Block 2
Cell line: HaCaT
Concentration: 100 µM
Time: 36 h
Compound | viability
Cc1ccc2c(Cl)cc(Cl)c(O)c2n1 | 6.26%
CN(C)CCCN1c2ccccc2Sc2ccccc21 | 4.95%
Cc1ccc(Cl)c(Nc2ccccc2C(=O)O)c1Cl | 36.3%
CCCCNc1ccc(C(=O)OCCN(C)C)cc1 | 65.8%
C[C@]12CC[C@@H]3c4ccc(OC(=O)c5ccccc5)cc4CC[C@H]3[C@@H]1CC[C@@H]2O | 4.37%
CC(C)(C)CC(C)(C)c1ccc(O)c(Cc2ccc(Cl)cc2Cl)c1 | 4.96%
CC1=NN(c2ccccc2)C(=O)C1 | 56.9%
CO[C@H]1O[C@@H]2O[C@@]3(C)CC[C@H]4[C@H](C)CC[C@@H]([C@H]1C)[C@@]24OO3 | 75.9%
O=C(O)c1ccc(-n2nc(-c3ccccc3O)nc2-c2ccccc2O)cc1 | 44%
COC(=O)c1ccccc1O | 87%

Block 3
SMILES: NC(N)=NC(=O)c1nc(Cl)c(N2CCCCCC2)nc1N
Read-out: β-arrestin recruitment
Mode: agonist
Method: PRESTO-Tango
Concentration: 10 µM
Reference: untreated
target | fold over basal
P2Y purinoceptor 11 (P2RY11, Homo sapiens, UniProt Q96G91) | 0.85
VIPR1 (Homo sapiens, UniProt P32241) | 0.83 fold
Adhesion G-protein coupled receptor F3 (ADGRF3, Homo sapiens, UniProt Q8IZF5) | 1.36
HCAR3 (Homo sapiens, UniProt P49019) | 0.75 fold
TACR1 (Homo sapiens, UniProt P25103) | 0.75 fold
GRPR (Homo sapiens, UniProt P30550) | 0.98 fold
HRH3 (Homo sapiens, UniProt Q9Y5N1) | 0.7 fold
CHRM2 (Homo sapiens, UniProt P08172) | 0.94
GPR119 (Homo sapiens, UniProt Q8TDV5) | 0.65
HTR1B (Homo sapiens, UniProt P28222) | 1.22
CCR1 (Homo sapiens, UniProt P32246) | 2.02

Block 4
Compound: CCCCc1c(-c2ccc(O)cc2)[nH]c2nccnc12
Read-out: enzyme activity
Mode: inhibitor
Concentration: 0.5 µM
Reference: control
target | remaining activity
JAK1 (Homo sapiens, UniProt P23458) | 53.8%
PAK1 (Homo sapiens, UniProt Q13153) | 81.4%
CLK2 (Homo sapiens, UniProt P49760) | 76.4%
CAMK1 (Homo sapiens, UniProt Q14012) | 92.5%
MAP3K20 (Homo sapiens, UniProt Q9NYL2) | 71%
EPHA2 (Homo sapiens, UniProt P29317) | 81.7%
CLK1 (Homo sapiens, UniProt P49759) | 97.9%
FLT1 (Homo sapiens, UniProt P17948) | 86.3%
CSNK1E (Homo sapiens, UniProt P49674) | 102%
IGF1R (Homo sapiens, UniProt P08069) | 87.3%
SIK2 (Homo sapiens, UniProt Q9H0K1) | 95.9%
CSNK1D (Homo sapiens, UniProt P48730) | 93.7%
Cyclin-dependent kinase 2, with cyclin E (CDK2, Homo sapiens, UniProt P24941) | 29.9%
RPS6KA3 (Homo sapiens, UniProt P51812) | 90.8%
SGK2 (Homo sapiens, UniProt Q9HBY8) | 99.4%
PRKCQ (Homo sapiens, UniProt Q04759) | 118%
TYRO3 (Homo sapiens, UniProt Q06418) | 99.6%
CAMKK1 (Homo sapiens, UniProt Q8N5S9) | 89.7%
SRPK1 (Homo sapiens, UniProt Q96SB4) | 101%
MUSK (Homo sapiens, UniProt O15146) | 82%
PAK6 (Homo sapiens, UniProt Q9NQU5) | 94.3%
TEC (Homo sapiens, UniProt P42680) | 87.3%
